Measurements pooled from the literature.
Lines come from different studies, so protocols differ. Values joined by “and” are separate records of one study, mostly repeats; a detail may differ. Numbers after ± are the reported error.
IKBKB: Inhibitor of nuclear factor kappa-B kinase subunit beta (IKBKB, Homo sapiens, UniProt O14920)
Chain of UniProt O14920 (whole entry, looked up): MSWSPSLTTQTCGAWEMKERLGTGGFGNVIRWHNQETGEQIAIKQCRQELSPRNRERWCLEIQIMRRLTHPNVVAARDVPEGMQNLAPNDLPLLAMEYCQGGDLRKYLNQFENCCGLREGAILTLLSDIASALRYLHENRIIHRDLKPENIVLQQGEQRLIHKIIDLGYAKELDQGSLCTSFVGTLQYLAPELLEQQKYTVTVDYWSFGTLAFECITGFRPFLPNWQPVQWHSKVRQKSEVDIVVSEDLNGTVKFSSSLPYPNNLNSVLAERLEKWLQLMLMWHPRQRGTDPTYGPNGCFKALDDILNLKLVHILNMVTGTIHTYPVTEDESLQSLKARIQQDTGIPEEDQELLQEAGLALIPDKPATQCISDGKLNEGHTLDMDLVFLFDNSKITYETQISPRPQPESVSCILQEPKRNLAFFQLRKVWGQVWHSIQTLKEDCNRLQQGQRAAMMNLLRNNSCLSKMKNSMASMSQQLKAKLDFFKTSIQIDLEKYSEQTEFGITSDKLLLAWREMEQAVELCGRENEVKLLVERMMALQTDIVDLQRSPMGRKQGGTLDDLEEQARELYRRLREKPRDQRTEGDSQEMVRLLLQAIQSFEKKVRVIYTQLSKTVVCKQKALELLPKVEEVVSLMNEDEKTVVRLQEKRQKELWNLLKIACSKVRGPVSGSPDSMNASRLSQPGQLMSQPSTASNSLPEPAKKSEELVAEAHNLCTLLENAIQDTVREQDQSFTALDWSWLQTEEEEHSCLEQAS
HTR4: 5-hydroxytryptamine receptor 4 (HTR4, Homo sapiens, UniProt Q13639)
Chain of UniProt Q13639 (whole entry, looked up): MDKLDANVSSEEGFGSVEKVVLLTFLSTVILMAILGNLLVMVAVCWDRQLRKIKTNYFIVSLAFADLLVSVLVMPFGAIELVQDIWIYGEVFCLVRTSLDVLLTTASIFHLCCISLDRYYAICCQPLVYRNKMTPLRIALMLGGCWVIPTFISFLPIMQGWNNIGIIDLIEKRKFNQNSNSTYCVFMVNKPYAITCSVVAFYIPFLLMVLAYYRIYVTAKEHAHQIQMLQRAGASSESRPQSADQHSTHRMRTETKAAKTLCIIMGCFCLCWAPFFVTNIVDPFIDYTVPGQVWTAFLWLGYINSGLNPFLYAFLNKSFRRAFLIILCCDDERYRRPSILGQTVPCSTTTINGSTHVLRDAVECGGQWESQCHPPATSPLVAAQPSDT
Urease subunit alpha: Urease subunit alpha (Sporosarcina pasteurii, UniProt P41020)
Chain of UniProt P41020 (whole entry, looked up): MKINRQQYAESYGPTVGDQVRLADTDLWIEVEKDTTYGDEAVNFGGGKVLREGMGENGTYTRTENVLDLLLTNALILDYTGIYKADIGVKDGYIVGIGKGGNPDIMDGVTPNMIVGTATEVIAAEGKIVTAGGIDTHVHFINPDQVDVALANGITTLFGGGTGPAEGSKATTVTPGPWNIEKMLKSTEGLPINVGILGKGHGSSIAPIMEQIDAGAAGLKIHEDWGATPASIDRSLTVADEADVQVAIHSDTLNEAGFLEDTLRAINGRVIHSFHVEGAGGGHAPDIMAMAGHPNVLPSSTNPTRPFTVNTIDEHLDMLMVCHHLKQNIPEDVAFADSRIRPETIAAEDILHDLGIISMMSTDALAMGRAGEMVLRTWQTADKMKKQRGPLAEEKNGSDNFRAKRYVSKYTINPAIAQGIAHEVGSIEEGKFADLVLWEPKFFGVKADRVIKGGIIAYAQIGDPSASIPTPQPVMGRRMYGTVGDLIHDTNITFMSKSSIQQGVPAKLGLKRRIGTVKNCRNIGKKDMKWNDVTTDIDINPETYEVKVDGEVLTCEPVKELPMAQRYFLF
MAL12: Alpha-glucosidase MAL12 (MAL12, Saccharomyces cerevisiae S288c, UniProt P53341)
Chain of UniProt P53341 (whole entry, looked up): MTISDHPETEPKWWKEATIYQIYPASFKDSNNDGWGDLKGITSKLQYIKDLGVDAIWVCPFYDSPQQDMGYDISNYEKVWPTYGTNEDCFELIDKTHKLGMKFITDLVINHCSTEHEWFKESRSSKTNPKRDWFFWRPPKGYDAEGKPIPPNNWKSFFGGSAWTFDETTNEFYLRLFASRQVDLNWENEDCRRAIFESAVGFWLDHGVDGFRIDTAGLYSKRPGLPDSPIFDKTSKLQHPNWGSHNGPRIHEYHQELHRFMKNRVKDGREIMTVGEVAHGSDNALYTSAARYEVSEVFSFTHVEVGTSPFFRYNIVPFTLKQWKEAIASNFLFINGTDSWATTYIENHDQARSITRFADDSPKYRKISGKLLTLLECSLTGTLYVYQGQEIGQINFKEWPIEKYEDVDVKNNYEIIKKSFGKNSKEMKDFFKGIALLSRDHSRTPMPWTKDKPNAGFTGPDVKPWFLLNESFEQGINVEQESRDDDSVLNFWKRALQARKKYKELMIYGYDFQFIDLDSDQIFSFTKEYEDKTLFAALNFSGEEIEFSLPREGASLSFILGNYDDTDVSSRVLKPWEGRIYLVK
HTR1A: 5-hydroxytryptamine receptor 1A (HTR1A, Homo sapiens, UniProt P08908)
Chain of UniProt P08908 (whole entry, looked up): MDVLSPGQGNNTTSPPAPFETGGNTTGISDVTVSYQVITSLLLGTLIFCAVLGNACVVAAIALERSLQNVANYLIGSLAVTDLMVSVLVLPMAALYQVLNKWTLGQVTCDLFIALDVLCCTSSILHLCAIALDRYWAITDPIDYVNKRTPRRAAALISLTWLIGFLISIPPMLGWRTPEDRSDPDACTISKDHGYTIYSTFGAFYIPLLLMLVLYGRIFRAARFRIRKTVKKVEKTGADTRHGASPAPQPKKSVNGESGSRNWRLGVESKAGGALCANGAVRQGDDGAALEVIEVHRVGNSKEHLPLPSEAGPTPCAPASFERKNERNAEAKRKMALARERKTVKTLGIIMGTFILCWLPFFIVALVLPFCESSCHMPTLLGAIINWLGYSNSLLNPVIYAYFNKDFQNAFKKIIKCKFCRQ
DRD5: D(1B) dopamine receptor (DRD5, Homo sapiens, UniProt P21918)
Chain of UniProt P21918 (whole entry, looked up): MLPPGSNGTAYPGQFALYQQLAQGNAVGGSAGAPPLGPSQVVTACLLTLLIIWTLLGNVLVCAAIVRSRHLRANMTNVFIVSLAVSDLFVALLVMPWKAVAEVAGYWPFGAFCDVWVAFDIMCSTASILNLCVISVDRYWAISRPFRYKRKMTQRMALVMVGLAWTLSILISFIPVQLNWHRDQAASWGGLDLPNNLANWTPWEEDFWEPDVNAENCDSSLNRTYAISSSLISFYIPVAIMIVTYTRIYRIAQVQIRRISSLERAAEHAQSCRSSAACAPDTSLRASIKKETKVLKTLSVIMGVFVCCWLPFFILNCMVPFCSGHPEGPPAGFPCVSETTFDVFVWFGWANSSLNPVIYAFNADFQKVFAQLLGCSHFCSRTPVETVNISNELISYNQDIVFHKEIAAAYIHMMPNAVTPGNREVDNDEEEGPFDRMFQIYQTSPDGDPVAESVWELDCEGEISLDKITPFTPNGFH
Chain of UniProt O35240 (whole entry, looked up): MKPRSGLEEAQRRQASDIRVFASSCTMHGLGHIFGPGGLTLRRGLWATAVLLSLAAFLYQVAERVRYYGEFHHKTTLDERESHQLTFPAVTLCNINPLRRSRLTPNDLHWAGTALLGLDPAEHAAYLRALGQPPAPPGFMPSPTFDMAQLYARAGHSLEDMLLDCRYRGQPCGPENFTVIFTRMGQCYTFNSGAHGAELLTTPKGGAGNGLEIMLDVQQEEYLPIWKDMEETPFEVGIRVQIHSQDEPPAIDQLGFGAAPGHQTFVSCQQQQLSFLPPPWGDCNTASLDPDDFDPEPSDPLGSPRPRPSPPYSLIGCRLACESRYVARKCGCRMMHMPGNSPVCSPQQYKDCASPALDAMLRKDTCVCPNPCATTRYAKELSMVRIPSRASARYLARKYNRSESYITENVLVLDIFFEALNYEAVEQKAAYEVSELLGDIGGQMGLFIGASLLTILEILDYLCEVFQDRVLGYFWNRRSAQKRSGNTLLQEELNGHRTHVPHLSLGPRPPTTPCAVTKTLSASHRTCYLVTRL
Chain of UniProt Q13131 (whole entry, looked up): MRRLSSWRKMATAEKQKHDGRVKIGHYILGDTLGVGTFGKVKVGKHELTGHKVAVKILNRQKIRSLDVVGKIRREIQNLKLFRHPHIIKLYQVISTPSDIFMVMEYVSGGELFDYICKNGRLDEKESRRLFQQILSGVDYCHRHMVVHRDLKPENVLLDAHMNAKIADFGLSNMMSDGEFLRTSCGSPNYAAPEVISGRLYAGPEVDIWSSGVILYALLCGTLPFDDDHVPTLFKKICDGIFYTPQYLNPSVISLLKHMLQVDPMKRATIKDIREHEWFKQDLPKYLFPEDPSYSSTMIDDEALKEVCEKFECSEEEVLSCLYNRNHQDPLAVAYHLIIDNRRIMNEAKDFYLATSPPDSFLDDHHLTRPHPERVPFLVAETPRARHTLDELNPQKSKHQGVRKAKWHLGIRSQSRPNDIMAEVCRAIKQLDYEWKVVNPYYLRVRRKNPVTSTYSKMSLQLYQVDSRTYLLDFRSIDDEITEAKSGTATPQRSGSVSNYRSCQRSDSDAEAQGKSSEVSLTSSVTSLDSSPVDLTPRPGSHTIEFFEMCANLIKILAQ
Chain of UniProt Q8N884 (whole entry, looked up): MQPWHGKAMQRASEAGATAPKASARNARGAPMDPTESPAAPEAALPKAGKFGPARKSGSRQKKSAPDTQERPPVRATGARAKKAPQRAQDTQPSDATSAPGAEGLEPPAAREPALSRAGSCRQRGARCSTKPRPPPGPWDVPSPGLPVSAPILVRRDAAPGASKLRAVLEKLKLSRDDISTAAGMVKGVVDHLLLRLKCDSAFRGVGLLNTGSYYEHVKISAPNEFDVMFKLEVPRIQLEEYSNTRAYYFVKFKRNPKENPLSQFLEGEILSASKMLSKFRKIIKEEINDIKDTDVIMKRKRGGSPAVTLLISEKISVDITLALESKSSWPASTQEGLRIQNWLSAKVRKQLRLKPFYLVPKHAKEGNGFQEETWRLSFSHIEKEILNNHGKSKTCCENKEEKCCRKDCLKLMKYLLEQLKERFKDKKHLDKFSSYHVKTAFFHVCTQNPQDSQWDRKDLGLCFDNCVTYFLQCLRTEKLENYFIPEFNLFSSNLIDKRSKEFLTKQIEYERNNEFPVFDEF

| Structure (SMILES) | target or system | assay | test system | conditions | how to read | quantity | result |
| --- | --- | --- | --- | --- | --- | --- | --- |
| CN1CC(Oc2cnc(C#N)cc2-c2ccn3nc(NC(=O)C4CC4)cc3c2)C1 | IKBKB | inhibitor, KinaseProfiler panel |  | 1 µM |  | inhibition | -5% |
| Cc1cc(-c2ccnc3[nH]cc(F)c23)cc(F)c1[C@@]1(O)[C@H](C)CN(C(=O)CN)C[C@@H]1C | AKT2 and AKT3 | ATP probe binding, KiNativ, refers to: ATP loop | HEK293T cell lysate | 1 µM |  | inhibition | -27.1% |
| COc1ccc2c(c1)C(=O)N(CCCN1CCN(c3ccccc3OC)CC1)C2 | HTR4 | radioligand binding |  | concentration not given |  | inhibition | 6.9% |
| Cc1ccc(NC(=S)N/N=C/C=C/c2ccc(F)cc2)c(C)c1 | Urease subunit alpha | enzyme activity, indophenol method |  | 500 µM |  | inhibition | 88.7% |
| CCS(=O)(=O)c1nc(S(=O)(=O)c2ccccc2Cl)c(N2CCN(C)C(=O)[C@H]2C)s1 | HRH4 (Homo sapiens, UniProt Q9H3N8) |  |  | 10 µM |  | inhibition | 0.06% |
| COc1ccc(-c2coc3c(Cn4nc(C)cc4C)c(O)ccc3c2=O)cc1 | MAL12 | inhibitor |  | 25 µM |  | inhibition | 67.2% |
| Clc1cncc(OC[C@@H]2CN(CCN3CCc4ccccc43)CCO2)c1 | HTR1A | radioligand binding |  | concentration not given, with: [3H]8-OH-DPAT |  | inhibition | 22.4% |
| COc1cc(C(=O)NS(=O)(=O)c2ccccc2C)ccc1Cc1cn(C)c2ccc(NC(=O)OC3CCCC3)cc12 | Volume-regulated anion channel subunit LRRC8C, part LRRC8A IL1 chimera (LRRC8C, Homo sapiens, UniProt Q8TDW0, M48D) | ion current, inhibitor, whole-cell patch clamp | HCT LRRC8-/- cells | 100 µM, constitutively open channel, +100 mV |  | inhibition | 64.4% and 65% and 77.4% and 54.5% |
| COc1ccc(-c2ccc3c(N4CCOC[C@@H]4C)nc(N4CCOC[C@@H]4C)nc3n2)cc1COC(=O)CCOCCOCCOCCONC(=O)c1ccc(F)c(F)c1Nc1ccc(I)cc1F | MAP3K8 (Homo sapiens, UniProt P41279) | enzyme activity |  | 2.5 µM |  | inhibition | inhibited |
| CCN(CC)CCCC(C)Nc1ccnc2cc(Cl)ccc12 (stereo not drawn) | COS-7 | WST-8 |  | 50 µM, 24 h, 0.1% DMSO, unit not given | baseline: vehicle control | metabolic activity | 0.9 ± 0.13 |
| O=C(CN1CCO[C@H](COc2cccnc2)C1)N1CCc2ccccc21 | HTR4 | radioligand binding |  | concentration not given |  | inhibition | 10.6% |
| Fc1ccc(/C=C/C=N/NC(=S)NCc2ccc(Br)cc2)cc1 | Urease subunit alpha | enzyme activity, indophenol method |  | 500 µM |  | inhibition | 87% |
| Cc1cc2c(cc1N1C(=O)c3cccc4c(CCCO)ccc(c34)C1=O)n(C)c(=O)n2C (racemic) | Bromodomain testis-specific protein, BD1 (BRDT, Homo sapiens, UniProt Q58F21) | binding, BROMOscan binding |  | 100 nM |  | inhibition | 93% |
| Cc1ncc([N+](=O)[O-])n1C(=NO)c1ccccc1C(F)(F)F | CHKtide kinase |  |  | 10 µM |  | inhibition | 15.2% |
| C[C@@H]1CCO[C@H]2Cn3cc(C(=O)NCc4ccc(F)cc4F)c(=O)c(O)c3C(=O)N12 | SLC29A4 (Homo sapiens, UniProt Q7RTT9) | transport | MDCK-II, transfected | 1 µM, with: MPP+ 10 µM |  | inhibition | -7.12% |
| Cc1nn(-c2nc3c(F)cc(F)cc3s2)c(O)c1C(c1cccc(C(F)(F)F)c1)c1c(C)nn(-c2nc3c(F)cc(F)cc3s2)c1O | CGAS (Homo sapiens, UniProt Q8N884) | enzyme activity, inhibitor, pyrophosphatase-coupled |  | 50 µM, 1.5 h, with: HT-DNA |  | inhibition | 72.9% |
| Fc1ccc(/C=C/C=N/NC(=S)NCc2ccccc2)cc1 | Urease subunit alpha | enzyme activity, indophenol method |  | 500 µM |  | inhibition | 85.3% |
| COc1ccc(-c2nn(-c3ccc(S(C)(=O)=O)cc3)cc2/C=N/N=c2\[nH]c(-c3ccc(Br)cc3)cs2)cc1 | EGFR (Homo sapiens, UniProt P00533, L858R) | kinase activity, inhibitor |  | 100 µM |  | inhibition | 95% |
| Cc1cc(-c2ccnc3[nH]cc(F)c23)cc(F)c1[C@@]1(O)[C@H](C)CN(C2CCS(=O)(=O)CC2)C[C@@H]1C | AKT2 and AKT3 | ATP probe binding, KiNativ, refers to: ATP loop | HEK293T cell lysate | 1 µM |  | inhibition | 10.8% |
| NC/C(=C\F)COc1cccc(Cn2c(=S)[nH]c(=O)c3[nH]cnc32)c1 | rabbit P2X receptor | radioligand binding |  | 10 µM |  | inhibition | < 50% |
| COc1cccc(NC(=S)N/N=C/C=C/c2ccc(F)cc2)c1 | Urease subunit alpha | enzyme activity, inhibitor, indophenol method |  | concentration not given | baseline: thiourea | inhibition | inactive |
| Clc1cccc(OC[C@H]2CN(CCN3CCc4ccccc43)CCO2)c1 | HTR4 | radioligand binding |  | concentration not given |  | inhibition | 27.8% |
| O=C(NO)c1ccc(CN2CCCCc3ccccc32)c(F)c1 | DRD5 | radioligand binding, radioligand displacement |  | 10 µM |  | inhibition | -13.7% |

| Structure (SMILES) | target or system | assay | test system | conditions | how to read | quantity | result |
| --- | --- | --- | --- | --- | --- | --- | --- |
| O=C1c2ccccc2CCN1CCCCN1CCN(c2ccccn2)CC1 | HTR4 | radioligand binding |  | concentration not given |  | inhibition | 10.7% |
| CC[C@@H]1[C@H](F)C(=O)N[C@@H]1COc1nccc2cc(C(N)=O)c(OC)cc12 | PRKAA1 (Homo sapiens, UniProt Q13131) | ATP probe binding, KiNativ profiling, refers to: ATP loop probe site | THP-1 cell lysate | 0.01 mM |  | inhibition | 7.8% |
| CCN(Cc1ccccc1C(F)(F)F)C(=O)C1CCN(S(=O)(=O)c2ccc3[nH]ncc3c2)CC1 | rat sodium channel | radioligand binding |  | 10 µM, site 2 |  | inhibition | 49% |
| OCCCN1CC[C@@H]2C[C@H]1c1cc(-c3ccc(C(F)(F)F)cc3)ccc12 | DRD5 | radioligand binding, PDSP competition binding |  | 10 µM |  | inhibition | < 50% |
| COc1ccc(F)cc1C(=O)NCc1ccc(-c2nn([C@@H](C)C(F)(F)F)c(N)c2C(N)=O)cc1 | BTK (Homo sapiens, UniProt Q06187) | probe binding, competitive chemoproteomics | human PBMCs | 0.01 µM |  | inhibition | 45.4% |
| COc1c(C#N)ccnc1N1C2CCC1CN(C(=O)c1cccnc1-n1cccn1)C2 | α2 | binding |  | 10 µM |  | inhibition | -20.3% |
| Cc1ccnc(C)c1OC[C@H]1CN(CCN2CCc3ccccc32)CCO1 | HTR1A | radioligand binding |  | concentration not given, with: [3H]8-OH-DPAT |  | inhibition | 36.3% |
| Cc1ccc(C(=O)Nc2ccc3ccccc3c2)o1 | Asic3 (Rattus norvegicus, UniProt O35240) | ion current, whole-cell patch-clamp |  | 10 µM, rASIC3 |  | inhibition | 9.27% |
| c1cncc(OC[C@H]2CN(CCN3CCc4ccccc43)CCO2)c1 | HTR1A | radioligand binding |  | concentration not given, with: [3H]8-OH-DPAT |  | inhibition | 24.1% |
| Cn1cc(-c2ccc(-c3cncc(Cl)c3N3CCC4(CCNC4=O)CC3)cc2)cn1 | COLO 205 | microarray, refers to: PLAUR |  | concentration not given, 2 h, gene set uPAR | baseline: untreated cells | fold change in expression | 2.02 |
| C[C@H](CCC(C)(C)O)[C@H]1CC[C@H]2[C@@H]3CC=C4C[C@@](C)(O)CC[C@]4(C)[C@H]3CC[C@]12C | Glutamate NMDA receptor; GRIN1/GRIN2B (GRIN1/GRIN2B, Homo sapiens, UniProt Q05586+Q13224) | proton inhibition of current, two-electrode voltage clamp | Xenopus oocytes | concentration not given, current ratio pH 6.8 over pH 7.6, with: positive allosteric modulator 10 µM |  | inhibition | 41 ± 4.1% |
| Cn1cc(-c2cnc3ccc(NC(=O)Nc4ccc(F)c(Br)c4)cc3n2)cn1 | IKBKB | kinase binding, KiNativ profiling, refers to: Lys2 peptide | PANC-1 lysate | 1.25 µM |  | inhibition | 3.3% |
| CN(C(=O)n1cnc(-c2ccc[n+]([O-])c2)c1)C1CCCCC1 | Nitric oxide synthase 1 (Homo sapiens, UniProt P29475) |  |  | 10 µM |  | inhibition | -4.5% |
| O=C(Nc1cccc2c(=O)cc(-c3nnn[nH]3)oc12)c1ccc(OCCCCc2ccccc2)cc1 | Volume-regulated anion channel subunit LRRC8C, part LRRC8A IL1 chimera (LRRC8C, Homo sapiens, UniProt Q8TDW0, E6A) | ion current, inhibitor, whole-cell patch clamp | HCT LRRC8-/- cells | 3 µM, +100 mV |  | inhibition | 92.8% and 96.6% and 91.6% and 97% |
| C=C1C(=O)O[C@@H]2C[C@@]3(C)CCCC(=C)[C@@H]3C[C@H]12 | COS-7 | WST-8 |  | 30 µM, 24 h, 0.1% DMSO, unit not given | baseline: vehicle control | metabolic activity | 0.71 ± 0.09 |
| O=C(O)c1cc(O)c2c(c1)C(=O)c1cccc(O[C@@H]3O[C@H](CO)[C@@H](O)[C@H](O)[C@H]3O)c1C2=O | HepaRG co-cultured with HK-2 | MTT |  | 66.67 µM, 48 h | baseline: untreated control | cell viability | 63.4 ± 15.6% |
| Cc1cc(=O)oc2c(Cn3cccn3)c(O)ccc12 | MAL12 | inhibitor |  | 25 µM |  | inhibition | 35.5% |
| O=C(CN1CCO[C@H](COc2ccccc2)C1)N1CCc2ccccc21 | DRD5 | radioligand binding |  | concentration not given, with: [3H]SCH23390 |  | inhibition | 3.6% |
| O=c1ccc2ccc(O)c(Cn3ncc4ccccc43)c2o1 | MAL12 | inhibitor |  | 25 µM |  | inhibition | < 0% |
| C[C@H]1c2nc3ccccc3c(-c3ccccc3)c2[C@H]2C[C@@H]1N(Cc1ccccc1)C[C@]2(C)O | Mu-type opioid receptor (Cavia porcellus, UniProt A0ACM8Q262) | binding, radioligand binding | guinea pig brain membranes | 1 µM, with: [3H]DAMGO |  | inhibition | 0% |
| O=C1c2cccc(O)c2C(=O)c2c(O)cc(CO)cc21 | HepaRG co-cultured with HK-2 | MTT |  | 33.33 µM, 48 h | baseline: untreated control | cell viability | 67.7 ± 6.52% |
| COc1cc(-c2cc(C(C)=O)n3ccccc23)cc(OC)c1Cn1ccnc1 | Bromodomain testis-specific protein, BD2 (BRDT, Homo sapiens, UniProt Q58F21) |  |  | 1 µM |  | inhibition | 42.3% |

For quick reference, copied from above:
| Structure (SMILES) | target or system | assay | test system | conditions | how to read | quantity | result |
| --- | --- | --- | --- | --- | --- | --- | --- |
| Clc1cccc(OC[C@H]2CN(CCN3CCc4ccccc43)CCO2)c1 | HTR4 | radioligand binding |  | concentration not given |  | inhibition | 27.8% |
| Cc1nn(-c2nc3c(F)cc(F)cc3s2)c(O)c1C(c1cccc(C(F)(F)F)c1)c1c(C)nn(-c2nc3c(F)cc(F)cc3s2)c1O | CGAS (Homo sapiens, UniProt Q8N884) | enzyme activity, inhibitor, pyrophosphatase-coupled |  | 50 µM, 1.5 h, with: HT-DNA |  | inhibition | 72.9% |
| Cc1ncc([N+](=O)[O-])n1C(=NO)c1ccccc1C(F)(F)F | CHKtide kinase |  |  | 10 µM |  | inhibition | 15.2% |
| Clc1cncc(OC[C@@H]2CN(CCN3CCc4ccccc43)CCO2)c1 | HTR1A | radioligand binding |  | concentration not given, with: [3H]8-OH-DPAT |  | inhibition | 22.4% |
